Experimental data collected from several papers.
Parts stem from different laboratories: compare values within a part only. Substitutions count along the parent as printed.

Sample 1 — method: protein-binding microarray; molecule type: double-stranded DNA, one strand shown; sample: in vitro; concentration: 0.8 µM; setting: whole 60-bp probe, no competitor; reading: higher = stronger binding
Target: Centromere-binding protein 1, full length, N-terminal tag (CBF1, Saccharomyces cerevisiae, UniProt P17106, residues 1-351)
UniProt P17106, sequence (whole entry, looked up): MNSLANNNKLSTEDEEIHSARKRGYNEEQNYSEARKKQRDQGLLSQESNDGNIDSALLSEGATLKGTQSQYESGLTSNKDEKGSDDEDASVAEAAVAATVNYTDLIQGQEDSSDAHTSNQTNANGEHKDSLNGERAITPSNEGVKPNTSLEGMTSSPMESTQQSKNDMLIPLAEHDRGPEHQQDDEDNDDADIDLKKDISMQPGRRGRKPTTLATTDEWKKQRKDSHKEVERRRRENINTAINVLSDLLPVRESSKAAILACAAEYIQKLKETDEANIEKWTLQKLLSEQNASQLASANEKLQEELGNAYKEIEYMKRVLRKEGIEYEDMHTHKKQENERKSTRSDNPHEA
For `CTAAGTTTTTTTCAGGTGATTATTTTACCGGGCTTCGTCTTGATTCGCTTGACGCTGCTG`, the fluorescence intensity was 700 a.u.
For `GAATTTAGGCACCGTCAGGTACTAAGGGCTAAATAGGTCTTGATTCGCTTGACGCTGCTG`, the fluorescence intensity was 469 a.u.
The fluorescence intensity of `TGTACGAAGCTATGTAGAGTCACTATAGTAGTTAGGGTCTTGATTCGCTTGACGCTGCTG` is reported as 563 a.u.
The fluorescence intensity of `CTAGTGCAGCCGGCCCTCGTGCGCCTGCGCCGTTTCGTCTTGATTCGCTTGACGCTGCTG` is reported as 570 a.u.
`CTAGGGCGGCAAAATCATGAGAAGCGCACATGTTTCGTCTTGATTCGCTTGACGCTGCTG` has a fluorescence intensity of 619 a.u.
`GAAATAAGGGATAGTGGCATCACGAGAAGCTGTTAGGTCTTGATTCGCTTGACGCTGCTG` has a fluorescence intensity of 705 a.u.
The fluorescence intensity of `GAATTAGGAGAGCGTGGTGTTCTCATCCTACTATAGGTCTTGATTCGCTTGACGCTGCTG` is reported as 599 a.u.
With `CTACACTAATAACACCACACCATTAATTTTAATTTCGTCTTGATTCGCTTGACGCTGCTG` the fluorescence intensity was 530 a.u.
`GAACCAAGCCATGGTCATGTGATTTCCATGTGCTAGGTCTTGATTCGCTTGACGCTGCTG` gave a fluorescence intensity of 9610 a.u.
The fluorescence intensity of `CTAGAGGTTTGGAATGATGTCACCGATGTTAGATTCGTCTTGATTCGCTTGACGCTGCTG` is reported as 534 a.u.
With `CTATTTTGAAGTGGTGACGTTACCGCTCTTCGTTTCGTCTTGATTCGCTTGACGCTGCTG` the fluorescence intensity was 520 a.u.
`GAACATGGATATTGTGCTGATGTAAAAGTATTCTAGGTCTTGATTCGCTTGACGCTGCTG` has a fluorescence intensity of 573 a.u.
For `GAAATTTATCAAATACATGTGAATTAAAAATTATAGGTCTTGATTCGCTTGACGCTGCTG`, the fluorescence intensity was 750 a.u.
The fluorescence intensity of `CTAATAAGCCATTCTGATGTTATCTTCTTGTACTTCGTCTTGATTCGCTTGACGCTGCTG` is reported as 498 a.u.
`GAAACGCATGTTTCTCATGTGTTACCCGTCCTTTAGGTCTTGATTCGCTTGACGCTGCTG` gave a fluorescence intensity of 697 a.u.
With `GAAATGTGTTCACGTGACGCTATCGACACCCGCTAGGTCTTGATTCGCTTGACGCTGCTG` the fluorescence intensity was 25000 a.u.
The fluorescence intensity of `CTATATTTTGTATATCTGATGCTATAGCCTCTATTCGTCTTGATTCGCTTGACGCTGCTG` is reported as 533 a.u.
The fluorescence intensity of `GAAATGCTAAAATATGGCGTGACCGTAATAACATAGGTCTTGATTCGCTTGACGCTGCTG` is reported as 1780 a.u.
The fluorescence intensity of `CTATTAGTTGAACATGTGACGAAAGCTCTGCTATTCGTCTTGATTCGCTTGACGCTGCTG` is reported as 6550 a.u.

Sample 2 — method: RNA Bind-n-Seq; molecule type: RNA; sample: in vitro; concentration: 200 nM; setting: whole 134-nt RNA, ends assumed; together with: 150 mM LiCl; relative to: input library; reading: higher = stronger binding; each molecule: 7-deaza-guanosine replaces G
Target: Ras GTPase-activating protein-binding protein 1, full length (G3BP1, Homo sapiens, UniProt Q13283)
UniProt Q13283, sequence (whole entry, looked up): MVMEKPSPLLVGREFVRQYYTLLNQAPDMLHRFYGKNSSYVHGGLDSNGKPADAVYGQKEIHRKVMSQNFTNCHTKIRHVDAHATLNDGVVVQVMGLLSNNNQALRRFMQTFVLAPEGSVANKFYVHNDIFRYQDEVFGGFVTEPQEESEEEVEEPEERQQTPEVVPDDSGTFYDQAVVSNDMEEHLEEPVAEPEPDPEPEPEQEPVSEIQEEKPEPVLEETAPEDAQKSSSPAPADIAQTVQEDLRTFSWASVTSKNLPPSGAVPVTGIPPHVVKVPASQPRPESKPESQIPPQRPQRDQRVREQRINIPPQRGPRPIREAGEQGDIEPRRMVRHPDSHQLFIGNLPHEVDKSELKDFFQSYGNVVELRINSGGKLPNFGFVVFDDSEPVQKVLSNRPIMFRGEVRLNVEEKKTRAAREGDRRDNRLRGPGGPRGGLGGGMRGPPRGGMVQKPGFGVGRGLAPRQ
`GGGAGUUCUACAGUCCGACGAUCAGUCCUGUGCUACACAUCGUAUGUACCGAAUCGGGAAAAAAAGGGUUUGGGUUUGGGAAAGUAUUAUGUUACGCCGUUCGGAUCUGCACUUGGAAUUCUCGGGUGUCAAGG` gave a log2 enrichment of -1.71.
For `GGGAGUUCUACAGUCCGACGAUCCAAGUCCUGUGCUACACAUCGUAUGUACCGAAUCAAAUUUAAAUUUAAACCCAAAAAAGUAUUAUGUUACGCCGUUCGGAUCUGCACUUCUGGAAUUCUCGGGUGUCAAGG`, the log2 enrichment was 1.12.
With `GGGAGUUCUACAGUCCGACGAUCAAGUCCUGUGCUACACAUCGUAUGUACCGAAUCGGAAAAAGGAAAAAGGUUUUUGGAAAGUAUUAUGUUACGCCGUUCGGAUCUGCACUUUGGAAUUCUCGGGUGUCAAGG` the log2 enrichment was -1.74.
`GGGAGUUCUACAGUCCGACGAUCGUCCUGUGCUACACAUCGUAUGUACCGAAUCGGGUUUUUUGGUUUUUUGGUUUUUUGGGAAAGUAUUAUGUUACGCCGUUCGGAUCUGCAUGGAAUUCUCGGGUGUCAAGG` has a log2 enrichment of -1.02.
`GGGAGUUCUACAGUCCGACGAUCCUCAAGUCCUGUGCUACACAUCGUAUGUACCGAAUCGGGUGGGUUUGGGUGGGAAAGUAUUAUGUUACGCCGUUCGGAUCUGCACUUCCAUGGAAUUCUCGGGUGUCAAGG` gave a log2 enrichment of 0.0292.
`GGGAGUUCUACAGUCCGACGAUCAAGUCCUGUGCUACACAUCGUAUGUACCGAAUCGGUUUGGAAAAAAAGGAAAAAGGAAAGUAUUAUGUUACGCCGUUCGGAUCUGCACUUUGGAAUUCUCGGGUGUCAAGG` has a log2 enrichment of -1.25.
For `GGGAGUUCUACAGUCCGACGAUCAGUCCUGUGCUACACAUCGUAUGUACCGAAUCGGAAAGGAAAAAAAGGUUUUUUUGGAAAGUAUUAUGUUACGCCGUUCGGAUCUGCACUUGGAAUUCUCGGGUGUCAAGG`, the log2 enrichment was -2.05.
`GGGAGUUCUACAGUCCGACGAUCCUCAAGUCCUGUGCUACACAUCGUAUGUACCGAAUCGGGUGGGAAAGGGAGGGAAAGUAUUAUGUUACGCCGUUCGGAUCUGCACUUCCAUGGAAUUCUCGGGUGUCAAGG` gave a log2 enrichment of 0.502.

Sample 3 — method: RNA Bind-n-Seq; molecule type: RNA; sample: in vitro; concentration: 365 nM; relative to: no-protein control; reading: higher = stronger binding
Target: RNA binding protein fox-1 homolog 2, RRM domain, GST-SBP tag (RBFOX2, Homo sapiens, UniProt O43251-10, residues 100-194)
Setting: natural RNA segment, single round, ends assumed
For `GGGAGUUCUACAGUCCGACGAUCAAACUCCGUCUUCAUGUUUACCAUGGAGAGUUUUACAGAAAUCGGGCUGCACUCUGGGAGUGCUUACUCACAGUUUAUUUGCUUUUUUUAAAAAGGAGAUUAUUCUAAAAUGGAAUUCUCGGGUGCCAA`, “RBNS enrichment (R)” read 0.395.
For `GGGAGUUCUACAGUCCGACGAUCCACCUCUGAGGCUUCUAUCAUAACAGAAUACUGUGUGUGUAAAGGAAUGAGACUGCUUUUAAAGCAACACAUCAGAUCUUCUGCGUCUAAAAUGUAGAGUUUUUUUGAUUUGGAAUUCUCGGGUGCCAA`, “RBNS enrichment (R)” read 8.27.
`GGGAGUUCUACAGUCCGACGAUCAUUAUUUAUAUUACAGAGAAAAGAGGGAUCGGCCCUCCAAGGACCAGACAGAUUGAGAGAGAGUCACUUAAGCUGAGAGAGACUUAAGGGUGAGACUGGCGUGCAGGCGUUGGAAUUCUCGGGUGCCAA` — result for “RBNS enrichment (R)”: 0.5.
Under “RBNS enrichment (R)”, `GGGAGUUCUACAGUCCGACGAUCACUAAAAAGACAUGUUAGACUUUUUUUAAAAAAGCACUUAUGUUUUGAAAAUAGAAUAAAUAAUAAGAAUUUCCAAUUAAAUCAUGUCUGGUGCCAAUGUGCAAAACUUCUGGAAUUCUCGGGUGCCAA` is recorded as 0.55.
Under “RBNS enrichment (R)”, `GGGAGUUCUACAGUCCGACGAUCUGUGUUGACAAGUGGUUGAAGGCCAACCGGACGUGUCCCAUCUGCCGGGCCGACGCCUCCGAGGUGCCCAGGGAGGCUGAGUGAGGCCACGCAGCCGCCUGCCCGGGAGAUGGAAUUCUCGGGUGCCAA` is recorded as 0.721.
Under “RBNS enrichment (R)”, `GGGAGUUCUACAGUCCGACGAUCCUUGAGGUACUCCCUGAGCAGGACCCCACACUUGGGUGGGGGGGCUUAUCUGGGUGGGUGGGGAUGCCUGUUUACACUAGCGCUGACUCCCAACGGUGACGGCUCCCUUCUGGAAUUCUCGGGUGCCAA` is recorded as 0.493.
Under “RBNS enrichment (R)”, `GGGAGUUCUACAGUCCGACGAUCAUGUUUUGCCACUUCUGCAGACUGAGAGACGUGUCAUUGGACAUGUGUAACCAUUUGAUAUCUGAGCAAUAGUGUCUCAGUUUAAUAAAAGCUUCCUAUAGUACAUUGGUUGGAAUUCUCGGGUGCCAA` is recorded as 0.701.
For `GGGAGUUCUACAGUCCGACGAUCGAUACUCACCCAUGCAUAGCUACCCAGGGUUAAUUGGUAGCUGGGAUAUCUUUUCGCCUCAGACAGCUCUUCGAUUGCUCAUACAGAACAAUUCUGCCGGUGCUGAAGUAUGGAAUUCUCGGGUGCCAA`, “RBNS enrichment (R)” read 0.466.

Sample 4 — method: DHFR PCA, deep sequencing; sample: yeast; together with: (+)-ABA 1.4 µM; relative to: wild-type fitted maximum; reading: higher = stronger binding
Target: ABI1, truncated, D143A, DHFR fusion (Arabidopsis thaliana)
Setting: methotrexate growth selection, single substitutions
Starting sequence: PYL1, truncated, DHFR fusion (Arabidopsis thaliana); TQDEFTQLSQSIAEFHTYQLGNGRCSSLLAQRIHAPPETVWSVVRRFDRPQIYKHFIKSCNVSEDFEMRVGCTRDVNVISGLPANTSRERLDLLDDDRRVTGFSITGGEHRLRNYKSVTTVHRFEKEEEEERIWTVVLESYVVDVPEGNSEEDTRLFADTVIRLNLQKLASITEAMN; partner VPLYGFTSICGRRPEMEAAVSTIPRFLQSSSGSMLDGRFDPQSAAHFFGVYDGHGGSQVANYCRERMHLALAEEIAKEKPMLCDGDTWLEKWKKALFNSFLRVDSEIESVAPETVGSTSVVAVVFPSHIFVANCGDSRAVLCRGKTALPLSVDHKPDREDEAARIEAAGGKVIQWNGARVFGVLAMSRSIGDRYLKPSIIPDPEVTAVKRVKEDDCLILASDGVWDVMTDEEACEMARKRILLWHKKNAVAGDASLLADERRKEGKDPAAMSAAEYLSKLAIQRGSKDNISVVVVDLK
Under “relative binding score”, `T1R` is recorded as 56.8%.
`V145C` — result for “relative binding score”: 8.33%.
Under “relative binding score”, `I57D` is recorded as -10.1%.
`S42T`: “relative binding score” 26.4%.
`H122D` — result for “relative binding score”: 2.92%.
`K116D`: “relative binding score” -10.8%.
For `G148R`, “relative binding score” read 1.7%.
For `S9M`, “relative binding score” read 48.9%.
`Q10M` — result for “relative binding score”: 59.9%.
For `L112F`, “relative binding score” read 27.5%.
For `E147R`, “relative binding score” read 23.1%.
`V142W` — result for “relative binding score”: -23%.
Under “relative binding score”, `S80K` is recorded as -12.6%.
`S117P`: “relative binding score” 12.7%.
For `V70K`, “relative binding score” read 11%.
`I162H`: “relative binding score” 8.45%.
`C72L` — result for “relative binding score”: 8.21%.
`Q19T` — result for “relative binding score”: 63%.
`L169W`: “relative binding score” -0.772%.
`A13Q`: “relative binding score” 41.7%.
For `L164S`, “relative binding score” read 51.8%.
`E131R`: “relative binding score” 64.8%.
Under “relative binding score”, `A30Q` is recorded as 43.7%.
Under “relative binding score”, `L29Y` is recorded as 1.42%.
`S9P` — result for “relative binding score”: 8.89%.

For quick reference, copied from above (sample 3):
For `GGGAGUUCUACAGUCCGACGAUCGAUACUCACCCAUGCAUAGCUACCCAGGGUUAAUUGGUAGCUGGGAUAUCUUUUCGCCUCAGACAGCUCUUCGAUUGCUCAUACAGAACAAUUCUGCCGGUGCUGAAGUAUGGAAUUCUCGGGUGCCAA`, “RBNS enrichment (R)” read 0.466.
Under “RBNS enrichment (R)”, `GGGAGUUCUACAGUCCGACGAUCUGUGUUGACAAGUGGUUGAAGGCCAACCGGACGUGUCCCAUCUGCCGGGCCGACGCCUCCGAGGUGCCCAGGGAGGCUGAGUGAGGCCACGCAGCCGCCUGCCCGGGAGAUGGAAUUCUCGGGUGCCAA` is recorded as 0.721.
`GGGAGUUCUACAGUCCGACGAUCAUUAUUUAUAUUACAGAGAAAAGAGGGAUCGGCCCUCCAAGGACCAGACAGAUUGAGAGAGAGUCACUUAAGCUGAGAGAGACUUAAGGGUGAGACUGGCGUGCAGGCGUUGGAAUUCUCGGGUGCCAA` — result for “RBNS enrichment (R)”: 0.5.
Under “RBNS enrichment (R)”, `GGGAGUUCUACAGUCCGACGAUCACUAAAAAGACAUGUUAGACUUUUUUUAAAAAAGCACUUAUGUUUUGAAAAUAGAAUAAAUAAUAAGAAUUUCCAAUUAAAUCAUGUCUGGUGCCAAUGUGCAAAACUUCUGGAAUUCUCGGGUGCCAA` is recorded as 0.55.
